Measurements gathered from unrelated publications.
Lines come from different studies, so protocols differ. ± gives the spread as reported. No end group written: not given here.
Integrin beta-2: Integrin beta-2 (Homo sapiens, UniProt P05107)
H2-Ab1/H2-Aa: H2-Ab1/H2-Aa (Mus musculus, UniProt P01921+P04228)
Sequence of UniProt P04228 (whole entry, looked up): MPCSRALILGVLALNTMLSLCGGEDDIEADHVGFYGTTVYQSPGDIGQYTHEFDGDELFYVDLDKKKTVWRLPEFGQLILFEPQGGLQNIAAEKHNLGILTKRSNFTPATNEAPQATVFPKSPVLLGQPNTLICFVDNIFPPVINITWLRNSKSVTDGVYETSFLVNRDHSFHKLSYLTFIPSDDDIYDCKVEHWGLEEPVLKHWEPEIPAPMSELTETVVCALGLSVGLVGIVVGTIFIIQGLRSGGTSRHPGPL
Sequence of UniProt P01921 (whole entry, looked up): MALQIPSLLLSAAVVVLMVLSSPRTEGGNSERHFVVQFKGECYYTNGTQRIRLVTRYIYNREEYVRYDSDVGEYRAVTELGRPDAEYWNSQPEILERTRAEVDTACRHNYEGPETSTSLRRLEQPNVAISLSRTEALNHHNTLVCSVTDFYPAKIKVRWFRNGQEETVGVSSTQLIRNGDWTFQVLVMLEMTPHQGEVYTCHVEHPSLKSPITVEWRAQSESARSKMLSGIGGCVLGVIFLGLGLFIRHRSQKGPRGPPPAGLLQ
B1: chain DFVLDNEGNPLENGGTYYILSDITAFGGIRAAPTGNERCPLTVVQSRNELDKGIGTIISSPYRIRFIAEGHPLSLKFDSFAVIMLCVGIPTEWSVVEDLPEGPAVKIGENKDAMDGWFRLERVSDDEFNNYKLVFCPQQAEDDKCGDIGISIDHDDGTRRLVVSKNKPLVVQFQKLDKESL
B2: UGT1A9 (Homo sapiens, UniProt O60656); chain GKLLVVPMDGSHWFTMRSVVEKLILRGHEVVVVMPEVSWQLGRSLNCTVKTYSTSYTLEDLDREFKAFAHAQWKAQVRSIYSLLMGSYNDIFDLFFSNCRSLFKDKKLVEYLKESSFDAVFLDPFDNCGLIVAKYFSLPSVVFARGILCHYLEEGAQCPAPLSYVPRILLGFSDAMTFKERVRNHIMHLEEHLLCHRFFKNALEIASEILQTPVTEYDLYSHTSIWLLRTDFVLDYPKPVMPNMIFIGGINCHQGKPLPMEFEAYINASGEHGIVVFSLGSMVSEIPEKKAMAIADALGKIPQTVLWRYTGTRPSNLANNTILVKWLPQNDLLGHPMTRAFITHAGSHGVYESICNGVPMVMMPLFGDQMDNAKRMETKGAGVTLNVLEMTSEDLENALKAVINDKSYKENIMRLSSLHKDRPVEPLDLAVFWVEFVMRHKGAPHLRPAAHDLTWYQYHSLDVIGFLLAVVLTVAFITFKCCAYGYRKCLGKKGRVKKAHKSKTH
Sequence of UniProt Q9NYY3 (whole entry, looked up): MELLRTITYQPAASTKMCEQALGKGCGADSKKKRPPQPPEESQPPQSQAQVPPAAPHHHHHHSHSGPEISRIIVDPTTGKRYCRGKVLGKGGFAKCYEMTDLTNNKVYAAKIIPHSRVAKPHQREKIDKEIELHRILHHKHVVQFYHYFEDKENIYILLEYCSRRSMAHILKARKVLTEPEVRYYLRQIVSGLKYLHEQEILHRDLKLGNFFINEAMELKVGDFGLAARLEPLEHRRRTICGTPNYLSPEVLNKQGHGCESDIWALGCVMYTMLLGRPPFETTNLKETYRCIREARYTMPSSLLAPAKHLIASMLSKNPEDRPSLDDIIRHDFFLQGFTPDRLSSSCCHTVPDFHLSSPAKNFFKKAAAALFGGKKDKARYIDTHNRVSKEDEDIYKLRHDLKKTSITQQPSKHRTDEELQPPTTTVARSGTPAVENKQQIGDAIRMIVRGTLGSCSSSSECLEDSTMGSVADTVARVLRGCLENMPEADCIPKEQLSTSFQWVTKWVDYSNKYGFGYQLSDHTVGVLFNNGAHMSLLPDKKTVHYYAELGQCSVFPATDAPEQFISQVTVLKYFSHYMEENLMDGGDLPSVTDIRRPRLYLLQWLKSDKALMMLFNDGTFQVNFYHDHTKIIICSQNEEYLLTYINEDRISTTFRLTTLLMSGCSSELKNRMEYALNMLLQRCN
Sequence of UniProt P0C7A3 (whole entry, looked up): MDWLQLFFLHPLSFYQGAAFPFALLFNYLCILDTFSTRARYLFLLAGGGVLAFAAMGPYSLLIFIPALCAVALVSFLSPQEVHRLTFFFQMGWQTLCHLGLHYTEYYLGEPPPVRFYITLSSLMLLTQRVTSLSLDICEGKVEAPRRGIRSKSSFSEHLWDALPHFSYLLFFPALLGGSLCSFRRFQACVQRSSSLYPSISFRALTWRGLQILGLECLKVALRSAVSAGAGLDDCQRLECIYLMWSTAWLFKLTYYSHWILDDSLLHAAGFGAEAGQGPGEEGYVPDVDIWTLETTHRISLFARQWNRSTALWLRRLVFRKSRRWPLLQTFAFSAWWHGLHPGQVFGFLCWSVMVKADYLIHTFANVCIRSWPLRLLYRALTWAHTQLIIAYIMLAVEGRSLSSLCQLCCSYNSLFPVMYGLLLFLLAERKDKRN

Substance | target or system | assay | system | setting | quantity | result
angiostatin | Integrin beta-2 | binding, solid-phase binding | – | 22 °C | Kd | > 100000 nM
HNQNGVTAACSHE (HA(126-138) T128Q) | H2-Ab1/H2-Aa | class II-peptide complex dissociation, SEC-HPLC fluorescence | peptide, soluble I-A FITC-peptide complex | pH 5.3, 37 °C, together with: unlabeled Eα 5 µM | half-life | 63 h
B1 | Coagulation factor XI (F11, Homo sapiens, UniProt P03951) | enzyme activity, inhibitor | – | – | Ki | 620 nM
B2 (UGT1A9) | O=c1cc(-c2ccccc2O)oc2ccccc12 | steady-state kinetics | – | pH 7.4, 37 °C | Vmax | 7.44e-05 µmol/min/mg
GSSFLSPEHQRVQQRKESKKPPAKLQPK-{Gly(Biotin)} (not fully specified; biotin-labelled) | Membrane-bound ghrelin O-acyltransferase MBOAT4 (Mus musculus, UniProt P0C7A3) | substrate | peptide | pH 7 | Km | 3.5 ± 0.6 µM
GLHST (FITC-labelled, PEGylated) | Serine/threonine-protein kinase PLK2, polo-box domain (PLK2, Homo sapiens, UniProt Q9NYY3) | binding, fluorescence polarization | – | polo-box domain, together with: FITC-labelled peptide | Kd | > 2560 nM
HNGNGVTAACSHE (HA(126-138) T128G) | H2-Ab1/H2-Aa | class II-peptide complex dissociation, SEC-HPLC fluorescence | peptide, soluble I-A FITC-peptide complex | pH 5.3, 37 °C, together with: unlabeled Eα 5 µM | half-life | 1 h
plasminogen | Integrin beta-2 | binding, solid-phase binding | – | 22 °C | Kd | 500 nM
HNVNGVTAACTHE (HA(126-138) T128V/S136T) | H2-Ab1/H2-Aa | class II-peptide complex dissociation, SEC-HPLC fluorescence | peptide, soluble I-A FITC-peptide complex | pH 5.3, 37 °C, together with: unlabeled Eα 5 µM | half-life | 9 h
GKAPRKQ (acetyl-Lys18) | Protein AF-9, YEATS domain (Homo sapiens, UniProt P42568) | binding, isothermal titration calorimetry | – | together with: acetylated histone peptides | Kd | 11000 nM
